Results from different studies.
Every numbered part comes from another study and shows a few of its results, in no order. Substitutions count along the parent as printed.

Block 1
Target: ABI1, truncated, D143A, DHFR fusion (Arabidopsis thaliana, UniProt P49597)
Technique: DHFR PCA, dose-response
Matrix: yeast
Notes: Hill fit, mean, not affinity
With: (+)-ABA, dose series
Reading: lower = more sensitive
Endpoint: ABA EC50
Starting sequence: PYL1, truncated, DHFR fusion (Arabidopsis thaliana, UniProt Q8VZS8); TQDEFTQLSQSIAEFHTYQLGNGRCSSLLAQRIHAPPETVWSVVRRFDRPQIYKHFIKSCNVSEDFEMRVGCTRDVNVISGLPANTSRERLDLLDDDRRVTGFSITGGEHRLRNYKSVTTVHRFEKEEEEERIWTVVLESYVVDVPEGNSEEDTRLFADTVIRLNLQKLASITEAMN
S171I: 2.79 µM
R113G: 17.7 µM
D96V: 185 µM
Q51M: 26.7 µM
V142S: 2.61 µM
M68R: 34.1 µM
T6H: 5.84 µM
D96Y: 250 µM
E128R: 3.87 µM
S80T: 11.7 µM
V145F: 243 µM
R45S: 20.8 µM
K168T: 0.857 µM
T119L: 5.13 µM
Q19W: 12.9 µM
Q7N: 2.54 µM
N114T: 247 µM
D97Y: 5.44 µM
S104E: 98.1 µM
F66D: 6.47 µM
L28F: 10.4 µM
Q51F: 39.9 µM
V136C: 6.84 µM

Block 2
Target: RNA binding protein fox-1 homolog 2, RRM domain, GST-SBP tag (RBFOX2, Homo sapiens, UniProt O43251-10, residues 100-194)
Technique: RNA Bind-n-Seq
Form: RNA
Matrix: in vitro
Tested at: 365 nM
Notes: natural RNA segment, single round, ends assumed
Relative to: no-protein control
Reading: higher = stronger binding
Endpoint: RBNS enrichment (R)
Shared flanks, not repeated: GGGAGUUCUACAGUCCGACGAUC … UGGAAUUCUCGGGUGCCAA
Construct (chain): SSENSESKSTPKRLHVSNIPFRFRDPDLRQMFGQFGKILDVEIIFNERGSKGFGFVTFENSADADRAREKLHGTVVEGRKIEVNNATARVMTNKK
AAUAUUUUAAGACCAGGUAUAAUAGUGAAUGCCUGUCCCAGCUCCUGGGAUGCAGAGGAGGGGGAUCACUGCAAGACCACCCUGGUUGCUCUCCAUAUGAGCUCCAGGCC: 1.13
AACACCAGACUGAAGCACAUGUAAUAUAGACUGUGUAUGUUUACAAUGUUGUGUAUAAAUGGGACACUUUGCCCUCUACCACCUCCCCUUUGGUUGUAUGAUUUUCUUCU: 0.449
GUCUGUUAGCAUCUUCCUUUUCAUGGGGGGAGGGAAGAUAAAGUGAAUUGCCCAGAGCUGCCUUUUUCUUUUCUUUUUAAAAAUUUUAAGAAGUUUUCUUUGUGGGGCUG: 2.34
AGUGUCCACACCUGCAUGUAGGGAUUCGGUGUCCUGCUUAAUGCCUUCCCCUCUCGGGCUUCAUUCCACCCAGCUGUCAGCUGACCUGCGGGUGAAGGGCUCAGCCUUCU: 9.41
AUUCUGUUGGGUUUGGGCACAUAGGGCCAAAGGCAGAGGAGGGUGGCACUCUCAUGUUGGAACUUCUUUUGGGCUCAUGCUCAGGCCUUUUUUGGAUCACUAAGGACUAU: 0.837
CCAGAGCCCCACGCGGCUGCCCGGCAGUACCUCCUCCAGGCAGGAGCCGGGACUGUCACUUUGGAGACAAAACAGUGUUUGUAACAAUAACGUACUCACCGCCGCGGACA: 0.227
AUGUUUUGUUCUGGAAGUUUUAUAGUUUUAGCUCUUAAAUUUGGGCCUGUGAGCUGUUUUAAAUUAAUUUUUAUAUAUGGUAUGAGGUAAAGAUCUAAAUUCCUAUGGAU: 1.01
AUCAGGCAGCCUCCUGAUGCCAGAACACCUCAGGCAGAGCCCUACUCAGCUGUACCUGUCUGCCUGGACUGUCCCCUGUCCCCGCAUCUCCCCUGGGACCAGCUGGAGGG: 0.579

Block 3
Target: Interferon regulatory factor 3, full length, phosphomimetic (IRF3, Homo sapiens, UniProt Q14653, residues 1-427, S386D/S396D/S398D/S402D/T404D/S405D)
Sequence of UniProt Q14653 (whole entry, unmodified, looked up): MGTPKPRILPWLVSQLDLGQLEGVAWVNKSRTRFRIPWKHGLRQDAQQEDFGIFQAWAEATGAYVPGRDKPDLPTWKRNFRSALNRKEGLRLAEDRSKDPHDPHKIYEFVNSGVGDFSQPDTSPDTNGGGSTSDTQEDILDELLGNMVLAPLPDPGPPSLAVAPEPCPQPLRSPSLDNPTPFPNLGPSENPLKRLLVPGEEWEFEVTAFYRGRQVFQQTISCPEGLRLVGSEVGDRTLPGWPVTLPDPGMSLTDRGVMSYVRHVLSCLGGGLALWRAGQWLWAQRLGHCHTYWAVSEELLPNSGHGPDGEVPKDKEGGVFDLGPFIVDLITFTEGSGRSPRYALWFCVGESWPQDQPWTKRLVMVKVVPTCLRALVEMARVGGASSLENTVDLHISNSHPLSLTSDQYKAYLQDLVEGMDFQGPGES
Technique: protein-binding microarray
Form: double-stranded DNA, one strand shown
Matrix: in vitro
Tested at: 2540 nM top
Notes: 60-bp whole probe
With: salmon DNA 0.4 mg/ml
Relative to: random background probes
Reading: higher = stronger binding
Endpoint: fitted relative affinity
Shared flanks, not repeated: GCCTAGCAC … GTCTTGATTCGCTTGACGCTGCTG
TCATATCACTATTCTAGGACTGTGCTA: 1.62 z-score
TTTGCTCTGTGCATAGGCCTGTGCTAG: -0.255 z-score
GACGGACTCGACTTTCGGGACGTGCTA: 0.326 z-score
TTAGAACTGAGACTGGAGTAGTGCTAG: -0.557 z-score
TTAGATTTCGGGACTGGAGTAGTGCTA: 1.18 z-score
TTAGGTCTCCTACTTCTTTAGTGCTAG: 1.75 z-score
TTACATCTCAGTCTCGATTAGTGCTAG: 0.832 z-score
GACGGACTGGGGTTTCAGGACGTGCTA: -0.357 z-score
TTAGATTTCAGTTTCGACTAGTGCTAG: 4.49 z-score
CTTTCTTTACTTCACTCTCTGTGCTAG: 5.56 z-score
GACGGACTGGGGACTGGCGACGTGCTA: -1.01 z-score
TCATGTTTTAAATTCTAACTGTGCTAG: 0.762 z-score
CTAGAACTGAGTTTCGATTAGTGCTAG: 2.58 z-score

Block 4
Target: NFE2L2, bZIP domain (human)
Technique: DHFR protein complementation
Matrix: yeast
Notes: single substitutions, most at no-binding floor
Relative to: wild-type JUN-FOS pair
Reading: higher = stronger binding
Endpoint: binding fitness
Starting sequence: JUN, bZIP domain (human); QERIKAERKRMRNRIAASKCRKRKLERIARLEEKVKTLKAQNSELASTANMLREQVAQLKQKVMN; partner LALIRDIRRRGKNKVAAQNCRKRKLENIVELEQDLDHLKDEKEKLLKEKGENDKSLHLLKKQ
S43K: -1.58 natural log
E54F: -1.44 natural log
T37C: -1.2 natural log
E54N: -1.46 natural log
S43A: -1.39 natural log
K36E: -1.57 natural log
N42S: -1.46 natural log
A40W: -1.47 natural log
E32D: -1.49 natural log
A46N: -1.53 natural log
S47T: -1.38 natural log
Q41E: -1.51 natural log
V56N: -1.47 natural log
Q55H: -1.48 natural log
T48L: -1.29 natural log
T37K: -1.1 natural log
Q58H: -1.26 natural log
S43I: -1.45 natural log
K34D: -1.62 natural log

Block 5
Target: CCNA1, cyclin fold, Cln2 fusion (human)
Technique: yeast growth competition, sequencing
Matrix: yeast
Notes: weak parent motif
Relative to: not given
Reading: higher = stronger binding
Endpoint: normalised enrichment score
Starting sequence: HIRA docking peptide (human); SLSKRKLELEVET
SLSKRKLEAEVET [L9A]: 0.365
SLSKKKLEFEVET [R5K L9F]: -0.065
ALSKRKLELEVET [S1A]: 0.153
SLSKRKLELEAET [V11A]: -0.00766
SLSKRKLELEVEA [T13A]: 0.295
SLSKRKLELAVET [E10A]: -0.0295
SLAKRKLELEVET [S3A]: 0.0943

Repeated from above (block 4):
Q55H: -1.48 natural log
S43K: -1.58 natural log
T37C: -1.2 natural log
E32D: -1.49 natural log
